# Results gathered from unrelated publications.
# Compare with care: the assays were run in different laboratories. Numbers after ± are the reported error.
# GBA1: Lysosomal acid glucosylceramidase (GBA1, Homo sapiens, UniProt P04062)
# Sequence of UniProt P04062 (whole entry, unmodified, looked up): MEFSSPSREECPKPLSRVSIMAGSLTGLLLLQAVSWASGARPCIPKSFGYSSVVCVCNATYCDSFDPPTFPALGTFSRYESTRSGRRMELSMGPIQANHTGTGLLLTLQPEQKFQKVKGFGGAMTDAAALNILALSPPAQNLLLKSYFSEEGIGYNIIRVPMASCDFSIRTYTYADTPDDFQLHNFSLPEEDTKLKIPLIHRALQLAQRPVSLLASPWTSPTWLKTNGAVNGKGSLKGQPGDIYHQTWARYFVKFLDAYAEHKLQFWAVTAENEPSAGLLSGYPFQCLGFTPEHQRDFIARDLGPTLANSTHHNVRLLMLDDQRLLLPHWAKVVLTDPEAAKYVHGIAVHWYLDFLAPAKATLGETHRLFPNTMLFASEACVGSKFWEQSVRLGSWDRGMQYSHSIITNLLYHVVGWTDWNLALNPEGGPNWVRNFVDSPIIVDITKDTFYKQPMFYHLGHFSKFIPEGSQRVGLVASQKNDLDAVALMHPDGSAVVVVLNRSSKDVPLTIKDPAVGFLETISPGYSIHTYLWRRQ
# GBA1 R534H: Lysosomal acid glucosylceramidase (GBA1, Homo sapiens, UniProt P04062, R534H)
Compound,target,assay,system,setting,endpoint,result
CCCCCCCCOP(=O)(CCCCCCCC)O[C@@H]1O[C@H](CO)[C@@H](O)[C@H](O)[C@H]1F (mixture of isomers),GBA1,"enzyme activity, irreversible inhibitor",,"pH 5.5, 37 °C, added: 2,4-dinitrophenyl beta-D-glucopyranoside",Ki,377 µM
CC(C)COCCCCCN1C[C@H](O)[C@@H](O)[C@H](O)[C@@H]1CO,GBA1 R534H,"enzyme activity, inhibitor",,"recombinant Cerezyme, added: 4MU-β-D-glucopyranoside",Ki,1220 µM
CCCCCCCCCCCCNP(=O)(Oc1ccccc1)O[C@@H]1O[C@H](CO)[C@@H](O)[C@H](O)[C@H]1F (mixture of isomers),GBA1,"enzyme activity, irreversible inhibitor",,"pH 5.5, 37 °C, added: 2,4-dinitrophenyl beta-D-glucopyranoside",Ki,22.2 µM
O[C@H]1[C@H](O)[C@@H](O)c2[nH]cnc2[C@@H]1O,GBA1 R534H,"enzyme activity, inhibitor",,pH 6.8,Ki,13.7 µM
CCCCOP(=O)(Cc1ccccc1)O[C@@H]1O[C@H](CO)[C@@H](O)[C@H](O)[C@H]1F (mixture of isomers),GBA1,"enzyme activity, irreversible inhibitor",,"pH 5.5, 37 °C, added: 2,4-dinitrophenyl beta-D-glucopyranoside",Ki,742 µM
COc1ccc(C2=[N+]3C(=C(CCCCc4cn(C[C@@H]5[C@@H](O)[C@H](O)[C@@H](O)[C@@H]6O[C@H]56)nn4)c4ccc(-c5ccc(OC)cc5)n4[B-]3(F)F)C=C2)cc1,GBA1,in situ,human monocyte-derived macrophages,,IC50,~0.01 µM
OC[C@@H]1[C@@H](O)[C@H](O)[C@@H](O)c2nccn21,GBA1 R534H,"enzyme activity, inhibitor",,pH 6.8,Ki,0.07 µM
CC(C)(C)COCCCCCN1C[C@H](O)[C@@H](O)[C@H](O)[C@H]1CO,GBA1 R534H,"enzyme activity, inhibitor",,"recombinant Cerezyme, added: 4MU-β-D-glucopyranoside",Ki,3.8 µM
CC1=CC(C)=[N+]2C1=C(CCCCc1cn(C[C@@H]3[C@@H](O)[C@H](O)[C@@H](O)[C@@H]4O[C@H]34)nn1)c1c(C)cc(C)n1[B-]2(F)F,GBA1 R534H,"enzyme activity, inhibitor",,"pH 5.2, added: 4MU-β-D-Glc substrate",IC50,0.00124 ± 4e-05 µM
O=S1(=O)O[C@@H]2[C@H](CO)[C@@H](O)[C@H](O)[C@@H](O)[C@@H]2O1,GBA1 R534H,"enzyme activity, inhibitor",,"30 min preincubation, pH 5.2, 37 °C, added: 4-MU-β-Glc",IC50,119 ± 9.8 µM
CCC(=O)[C@@H]1[C@H]2[C@H](O)[C@@H](O)[C@H](O)[C@@H](CO)[C@@H]12,GBA1 R534H,"enzyme activity, inhibitor",,pH 5.2,IC50,> 150 µM
OC[C@@H]1[C@@H](O)[C@H](O)[C@@H](O)CN1CCCCCOCC1CCOC1 (stereo partly shown),GBA1 R534H,"enzyme activity, inhibitor",,"recombinant Cerezyme, added: 4MU-β-D-glucopyranoside",Ki,92 µM
OC[C@@H]1[C@@H](O)[C@H](O)[C@@H](O)[C@H]2O[C@@H]12,GBA1 R534H,"enzyme activity, inhibitor",,"30 min preincubation, pH 5.2, 37 °C, added: 4-MU-β-Glc",IC50,> 100 µM

# Repeated from above:
Compound,target,assay,system,setting,endpoint,result
CC(C)(C)COCCCCCN1C[C@H](O)[C@@H](O)[C@H](O)[C@H]1CO,GBA1 R534H,"enzyme activity, inhibitor",,"recombinant Cerezyme, added: 4MU-β-D-glucopyranoside",Ki,3.8 µM
